{"data": "Results collected from several papers", "note": "Each line is one published result; not all experiments were run side by side. ± marks the error that the study gave."}
{"Structure (SMILES)": "CCCC[C@H](NC(=O)CNC(=O)CNC(=O)CN1CCN(CC(=O)O)CCN(CC(=O)O)CCN(CC(=O)O)CC1)C(=O)N[C@H]1CC(=O)NCCCC[C@@H](C(N)=O)NC(=O)[C@H](Cc2c[nH]c3ccccc23)NC(=O)[C@H](CCCNC(=N)N)NC(=O)[C@@H](Cc2ccccc2)NC(=O)[C@H](Cc2c[nH]cn2)NC1=O [lead-203 labelled]", "system": "normal C57 mice, intestine", "setting": "intravenous, 0.056 MBq, 4 h", "tissue uptake": "1.68 ± 0.96 %ID"}
{"Structure (SMILES)": "CC(F)C(=O)NC[C@@H]1O[C@H](C(=O)N[C@@H](CCC(=O)NCCCC[C@@H]2NC(=O)[C@@H](Cc3ccc(O)cc3)NC(=O)[C@H](CC(=O)O)NC(=O)CNC(=O)[C@H](CCCNC(=N)N)NC2=O)C(=O)NCCCC[C@@H]2NC(=O)[C@@H](Cc3ccc(O)cc3)NC(=O)[C@H](CC(=O)O)NC(=O)CNC(=O)[C@H](CCCNC(=N)N)NC2=O)[C@H](O)[C@H](O)[C@H]1O (stereo partly shown) [fluorine-18 labelled]", "test": "small-animal PET", "system": "female athymic nude mice, U-87 MG xenograft, liver", "setting": "intravenous, 3.7 MBq, 60 min", "tissue uptake": "0.54 ± 0.14 %ID/g"}
{"Structure (SMILES)": "CCCC[C@H](NC(=O)CN1CCC(NC(=O)CN2CCN(CC(=O)O)CCN(CC(=O)O)CCN(CC(=O)O)CC2)CC1)C(=O)N[C@H]1CC(=O)NCCCC[C@@H](C(N)=O)NC(=O)[C@H](Cc2c[nH]c3ccccc23)NC(=O)[C@H](CCCNC(=N)N)NC(=O)[C@@H](Cc2ccccc2)NC(=O)[C@H](Cc2c[nH]cn2)NC1=O [gallium-68 labelled]", "system": "C57BL/6J mice male B16-F10 tumour, testes", "setting": "1 h post injection, unblocked", "tissue uptake": "0.3 ± 0.1 %ID/g"}
{"Structure (SMILES)": "O=C([O-])CN1CCN(CC(=O)[O-])CCN(CC(=O)[O-])CCN(CC(=O)[O-])CC1.[64Cu+2]", "system": "athymic nude mice, femur", "setting": "intravenous, 0.25 h, together with: 64Cu", "tissue uptake": "1.17 %ID/g"}
{"Structure (SMILES)": "O=C([O-])CN1CCN(CC(=O)[O-])CC(Cc2ccc(NC(=S)NCCOCCOCCOCCOCCOCCOCCOCCNC(=O)CCCC(=O)NCc3ccc(-c4nncnn4)cc3)cc2)N(CC(=O)[O-])CC1.[64Cu+2] (stereo not shown)", "test": "PET and biodistribution", "system": "healthy athymic nude mice, large intestine with contents", "setting": "4 h post-injection", "tissue uptake": "4.9 ± 0.7 %ID/g"}
{"Structure (SMILES)": "CC(F)C(=O)NC[C@@H]1O[C@H](C(=O)NCCCC[C@@H]2NC(=O)[C@@H](Cc3ccccc3)NC(=O)[C@H](CC(=O)O)NC(=O)CNC(=O)[C@H](CCCNC(=N)N)NC2=O)[C@H](O)[C@H](O)[C@H]1O (stereo partly shown) [fluorine-18 labelled]", "test": "small-animal PET", "system": "female athymic nude mice, U-87 MG xenograft, liver", "setting": "intravenous, 3.7 MBq, 120 min", "tissue uptake": "0.1 ± 0.01 %ID/g"}
{"Structure (SMILES)": "NC12CNCCNCC(NCc3ccc(CNC(=O)CCCC(=O)NCc4ccc(-c5nncnn5)cc4)cc3)(CNCCNC1)CNCCNC2.[64Cu+2]", "system": "athymic nude mice SW1222 xenograft, heart", "setting": "4 h post injection, 24 h accumulation interval, together with: huA33-TCO pretargeting", "tissue uptake": "1.45 ± 0.03 %ID/g"}
{"Structure (SMILES)": "CCCC[C@H](NC(=O)CNC(=O)CNC(=O)CN1CCN(CC(=O)O)CCN(CC(=O)O)CC1)C(=O)N[C@H]1CC(=O)NCCCC[C@@H](C(N)=O)NC(=O)[C@H](Cc2c[nH]c3ccccc23)NC(=O)[C@H](CCCNC(=N)N)NC(=O)[C@@H](Cc2ccccc2)NC(=O)[C@H](Cc2c[nH]cn2)NC1=O [gallium-67 labelled]", "system": "female C57 mice, B16/F1 melanoma, bone", "setting": "intravenous, 0.037 MBq, 4 h", "tissue uptake": "0.96 ± 0.87 %ID/g"}
{"Structure (SMILES)": "CCCC[C@@H]1NC(=O)[C@@H](NC(=O)[C@H](CCC(=O)O)NC(=O)CNC(=O)CN2CCN(CC(=O)O)CCN(CC(=O)O)CCN(CC(=O)O)CC2)CCCCNC(=O)C[C@@H](C(N)=O)NC(=O)[C@H](C(C)C)NC(=O)[C@@H]2CCCN2C(=O)[C@H](CCCNC(=N)N)NC(=O)CNC(=O)[C@H](Cc2c[nH]c3ccccc23)NC(=O)[C@H](CCCNC(=N)N)NC(=O)[C@@H](Cc2ccccc2)NC(=O)[C@H](Cc2c[nH]cn2)NC(=O)[C@H](CCC(=O)O)NC1=O [gallium-67 labelled]", "system": "C57 mice, B16/F10 lung metastases, bone", "setting": "intravenous, 0.037 MBq/mouse, 2 h", "tissue uptake": "0.16 ± 0.09 %ID/g"}
{"Structure (SMILES)": "N=C(N)NCCC[C@H](NC(=O)CON=C[C@H](F)[C@@H](O)[C@H](O)[C@H](O)CO)C(=O)NCC(=O)N[C@@H](CC(=O)O)C(=O)O [fluorine-18 labelled]", "system": "nude mice U-87 MG tumour, kidney", "setting": "intravenous, 2 h", "tissue uptake": "0.55 ± 0.51 %ID/g"}
{"Structure (SMILES)": "N=C(N)NCCC[C@H](NC(=O)[C@@H]1CSSC[C@H](NC(=O)[C@H](Cc2ccc3ccccc3c2)NC(=O)[C@H](CCCNC(=N)N)NC(=O)[C@H](CCCNC(=N)N)NC(=S)Nc2ccc(C[C@H]3CN(CC(=O)O)CCN(CC(=O)O)CCN3CC(=O)O)cc2)C(=O)N[C@@H](Cc2ccc(O)cc2)C(=O)N[C@@H](CCCNC(N)=O)C(=O)N[C@@H](CCCCN)C(=O)N[C@H](CCCCN)C(=O)N2CCC[C@H]2C(=O)N[C@@H](Cc2ccc(O)cc2)C(=O)N[C@@H](CCCNC(=N)N)C(=O)N[C@@H](CCCNC(N)=O)C(=O)N1)C(N)=O [copper-64 labelled]", "system": "female athymic nude mice, spleen", "setting": "intravenous, 50 µCi, 4 h", "tissue uptake": "4.59 ± 0.9 %ID/g"}
{"Structure (SMILES)": "CCCC[C@H](NC(=O)CNC(=O)CNC(=O)CN1CCN(CC(=O)O)CCN(CC(=O)O)CCN(CC(=O)O)CC1)C(=O)N[C@H]1CC(=O)NCCCC[C@@H](C(N)=O)NC(=O)[C@H](Cc2c[nH]c3ccccc23)NC(=O)[C@H](CCCNC(=N)N)NC(=O)[C@@H](Cc2ccccc2)NC(=O)[C@H](Cc2c[nH]cn2)NC1=O [gallium-67 labelled]", "system": "female C57 mice, B16/F1 melanoma, heart", "setting": "intravenous, 0.037 MBq, 0.5 h", "tissue uptake": "1.64 ± 0.18 %ID/g"}
{"Structure (SMILES)": "CC(F)C(=O)NCCOCCOCCOCC(=O)N[C@@H](CCC(=O)NCCCC[C@@H]1NC(=O)[C@@H](Cc2ccc(O)cc2)NC(=O)[C@H](CC(=O)O)NC(=O)CNC(=O)[C@H](CCCNC(=N)N)NC1=O)C(=O)NCCCC[C@@H]1NC(=O)[C@@H](Cc2ccc(O)cc2)NC(=O)[C@H](CC(=O)O)NC(=O)CNC(=O)[C@H](CCCNC(=N)N)NC1=O (stereo partly shown) [fluorine-18 labelled]", "test": "small-animal PET", "system": "female athymic nude mice, U-87 MG xenograft, muscle", "setting": "intravenous, 3.7 MBq, 120 min", "tissue uptake": "0.15 ± 0.04 %ID/g"}
{"Structure (SMILES)": "N=C(N)NCCC[C@@H]1NC(=O)[C@H](CCCCNC(=O)CC[C@H](NC(=O)CN2CCN(CC(=O)O)CCN(CC(=O)O)CCN(CC(=O)O)CC2)C(=O)NCCCC[C@@H]2NC(=O)[C@@H](Cc3ccccc3)NC(=O)[C@H](CC(=O)O)NC(=O)CNC(=O)[C@H](CCCNC(=N)N)NC2=O)NC(=O)[C@@H](Cc2ccccc2)NC(=O)[C@H](CC(=O)O)NC(=O)CNC1=O [gallium-68 labelled]", "system": "female BALB/c nude mice, FaDu xenograft, salivary gland", "setting": "intravenous, 0.5 nmol/mouse, 1 h", "tissue uptake": "1.2 ± 0.3 %ID/g"}
{"Structure (SMILES)": "N=C(N)NCCC[C@@H]1NC(=O)[C@H](CCCCNC(=O)CON=C[C@H](F)[C@@H](O)[C@H](O)[C@H](O)CO)NC(=O)[C@@H](Cc2ccc(O)cc2)NC(=O)[C@H](CC(=O)O)NC(=O)CNC1=O [fluorine-18 labelled]", "system": "nude mice U-87 MG tumour, bone", "setting": "intravenous, 2 h", "tissue uptake": "0.13 ± 0.21 %ID/g"}
{"Structure (SMILES)": "N=C(N)NCCC[C@@H]1NC(=O)[C@H](CCCCNC(=O)CC[C@H](NC(=O)[C@H]2O[C@@H](CNC(=O)c3ccc(F)cc3)[C@H](O)[C@@H](O)[C@H]2O)C(=O)NCCCC[C@@H]2NC(=O)[C@@H](Cc3ccc(O)cc3)NC(=O)[C@H](CC(=O)O)NC(=O)CNC(=O)[C@H](CCCNC(=N)N)NC2=O)NC(=O)[C@@H](Cc2ccc(O)cc2)NC(=O)[C@H](CC(=O)O)NC(=O)CNC1=O [fluorine-18 labelled]", "test": "small-animal PET", "system": "female athymic nude mice, U-87 MG xenograft, kidney", "setting": "intravenous, 3.7 MBq, 120 min", "tissue uptake": "2.41 ± 0.82 %ID/g"}
{"Structure (SMILES)": "CC(C)[C@H](NC(=O)[C@@H]1CCCN1C(=O)[C@H](CCCNC(=N)N)NC(=O)[C@H](CS)NC(=O)[C@H](Cc1c[nH]c2ccccc12)NC(=O)[C@H](CCCNC(=N)N)NC(=O)[C@@H](Cc1ccccc1)NC(=O)[C@H](Cc1c[nH]cn1)NC(=O)[C@H](CCC(=O)O)NC(=O)[C@H](CS)NC(=O)[C@H](CS)NC(=O)CNC(=O)[C@@H]1CC(=O)N[C@@H](CCCNC(=N)N)C(=O)NCC(=O)N[C@@H](CC(=O)O)C(=O)N[C@H](Cc2ccc(O)cc2)C(=O)N1)C(N)=O [technetium-99m labelled]", "system": "C57 mice B16/F1 melanoma female, lung", "setting": "iv, 2 h, together with: NDP-MSH 10 µg co-injected", "tissue uptake": "2.84 ± 2.62 %ID/g"}
{"Structure (SMILES)": "N=C(N)NCCC[C@H](NC(=O)[C@@H]1CSSC[C@H](NC(=O)[C@H](Cc2ccc3ccccc3c2)NC(=O)[C@H](CCCNC(=N)N)NC(=O)[C@H](CCCNC(=N)N)NC(=O)CN2CCN(CC(=O)O)CCN(CC(=O)O)CCN(CC(=O)O)CC2)C(=O)N[C@@H](Cc2ccc(O)cc2)C(=O)N[C@@H](CCCNC(N)=O)C(=O)N[C@@H](CCCCN)C(=O)N[C@H](CCCCN)C(=O)N2CCC[C@H]2C(=O)N[C@@H](Cc2ccc(O)cc2)C(=O)N[C@@H](CCCNC(=N)N)C(=O)N[C@@H](CCCNC(N)=O)C(=O)N1)C(N)=O [copper-64 labelled]", "test": "PET", "system": "tumour-bearing mice, liver", "setting": "100 µCi, 24 h", "tissue uptake": "13.6 ± 1.24 %ID/g"}
{"Structure (SMILES)": "CN1C(=O)[C@@H](Cc2ccc(O)c(I)c2)NC(=O)CNC(=O)[C@H](Cc2ccc3ccccc3c2)NC(=O)[C@H](CCCNC(=N)N)NC(=O)[C@H]1CCCNC(=O)c1ccc(CNC(=O)CN2CCN(CC(=O)O)CCN(CC(=O)O)CCN(CC(=O)O)CC2)cc1 [lutetium-177 labelled]", "test": "refers to: 177Lu radioactivity", "system": "female CB-17 SCID mice, Daudi xenograft, muscle", "setting": "intravenous, 0.16 nmol per mouse, 6 h", "tissue uptake": "0.06 ± 0.01 %ID/g"}
{"note": "Some of these lines once more:"}
{"Structure (SMILES)": "NC12CNCCNCC(NCc3ccc(CNC(=O)CCCC(=O)NCc4ccc(-c5nncnn5)cc4)cc3)(CNCCNC1)CNCCNC2.[64Cu+2]", "system": "athymic nude mice SW1222 xenograft, heart", "setting": "4 h post injection, 24 h accumulation interval, together with: huA33-TCO pretargeting", "tissue uptake": "1.45 ± 0.03 %ID/g"}
{"Structure (SMILES)": "O=C([O-])CN1CCN(CC(=O)[O-])CCN(CC(=O)[O-])CCN(CC(=O)[O-])CC1.[64Cu+2]", "system": "athymic nude mice, femur", "setting": "intravenous, 0.25 h, together with: 64Cu", "tissue uptake": "1.17 %ID/g"}
